Measured values of several laboratories.
± marks the error that the study gave.

With `NNc1nnc(Cl)c2ccccc12` the IC50 was greater than 25000 nM (Leishmania braziliensis; parasite growth, MTT; promastigote).
For `CC(C)(C)OC(=O)N[C@H](Cc1ccccc1)[C@@H](O)CN1CCC(N2CCCCC2)CC1`, the IC50 was 1890 nM (Plasmodium berghei; parasite growth; HepG2; liver stage).
For `CCN(CC)CC#CCNc1ccnc2cc(Cl)ccc12`, the IC50 was 25 nM (Plasmodium falciparum; parasite growth, SYBR Green; 3D7; blood stage).
The IC50 of `CNC(=O)CNc1cnc2ccc(-c3ccc(OC)c(OC)c3)cc2n1` is reported as 8340 nM (Cryptosporidium parvum; parasite growth, imaging; HCT-8; intracellular).
`CCCCCC1CC2CCCC3CC(C)N=C(N1)N32` (stereo not drawn) gave an IC50 of 19300 nM (Candida glabrata; fungal growth; ATCC 90030).
The IC50 of `COC1C=COC2(C)Oc3c(C)c(O)c4c(c3C2=O)C2=NC3(CCN(CC(C)C)CC3)NC2=C(NC(=O)C(C)=CC=CC(C)C(O)C(C)C(O)C(C)C(OC(=O)Nc2cscn2)C1C)C4=O` (stereo not drawn) is reported as 13 nM (Mycobacteroides abscessus; ATCC 19977; CAMHB).
`O=C(CCCN1C(=O)c2cccc3cccc(c23)C1=O)NO` has an IC50 of 2100 nM (Cryptosporidium parvum; parasite growth; HCT-8; 48 h, intracellular).
With `O=[N+]([O-])/C=C/c1ccco1` the IC50 was 1400 nM (Leishmania braziliensis; parasite growth; 72 h, promastigote).
The IC50 of `N#C/C(=C\c1ccc(O)c(O)c1)C(=O)c1ccc(O)c(O)c1` is reported as 1100 ± 160 nM (Strongylocentrotus purpuratus; Ca2+ release, antagonist; sea urchin egg homogenate; with: cADPR 300 nM).
The IC50 of `O=[N+]([O-])/C=C/c1ccc(Br)o1` is reported as 800 nM (Leishmania braziliensis; parasite growth; 72 h, promastigote).
`CN(C(=O)c1ccn2ncc(-c3ccc(C(N)=O)cc3)c2c1)C1CCC(C#N)CC1` (stereo not drawn) gave an IC50 of greater than 20000 nM (Cryptosporidium parvum; parasite growth, imaging; HCT-8; intracellular).
With `COC1C=COC2(C)Oc3c(C)c(O)c4c(c3C2=O)C2=NC3(CCN(CC(C)C)CC3)NC2=C(NC(=O)C(C)=CC=CC(C)C(O)C(C)C(O)C(C)C(OC(=O)c2cccnc2)C1C)C4=O` (stereo not drawn) the IC50 was 30 nM (Mycobacteroides abscessus; intracellular bacterial growth; THP-1 derived macrophages, ATCC 19977).
`Cc1ncc(COP(=O)(O)O)c(C=NNC(=N)NO)c1O`: IC50 “inactive” (Human mastadenovirus C; viral replication, plaque reduction; A549, Ad5 McEwen; 6 days).
With `CNC(=O)c1ccc(-c2cnn3ccc(C(=O)Nc4ccc(C#N)cn4)cc23)cc1` the IC50 was greater than 20000 nM (Cryptosporidium parvum; parasite growth, imaging; HCT-8; intracellular).
For `Cc1cc(N2CC[C@@](C#N)(C3(C)CC3)C2=O)cc(C(=O)NCc2cc(F)cc(-c3cnn(C)c3)c2)n1`, the IC50 was 9 nM (Plasmodium falciparum; parasite growth, ex vivo drug susceptibility; Brazilian clinical field isolates).

For quick reference, copied from above:
The IC50 of `N#C/C(=C\c1ccc(O)c(O)c1)C(=O)c1ccc(O)c(O)c1` is reported as 1100 ± 160 nM (Strongylocentrotus purpuratus; Ca2+ release, antagonist; sea urchin egg homogenate; with: cADPR 300 nM).
With `NNc1nnc(Cl)c2ccccc12` the IC50 was greater than 25000 nM (Leishmania braziliensis; parasite growth, MTT; promastigote).
